Published values pooled from the literature.
Protocols differ between the studies behind these lines. “And” joins repeats or separate records; there may be more than shown. Numbers after ± are the reported error.

| SMILES | cell line | test | setting | scale | quantity | value |
| --- | --- | --- | --- | --- | --- | --- |
| CC(C)C[C@H](NC(=O)[C@H](CC(=O)O)NC(=O)CNC(=O)[C@@H](N)CCCNC(=N)N)C(=O)N[C@@H](C)C(=O)N[C@H](C(=O)N[C@@H](CC(C)C)C(=O)N[C@@H](CCCNC(=N)N)C(=O)N[C@@H](CCC(N)=O)C(=O)N[C@@H](CC(C)C)C(=O)N[C@@H](C)C(=O)N[C@@H](CCC(N)=O)C(=O)N[C@@H](CCC(=O)O)C(=O)N[C@@H](CC(=O)O)C(=O)NCC(=O)N[C@H](C(=O)N[C@H](C(=O)NCC(=O)N[C@H](C(=O)N[C@@H](CCCNC(=N)N)C(=O)NCCOCCOCCOCCOCCOCCOCCOCCOCCOCCOCCOCCOCCC(=O)N[C@@H](CS)C(N)=O)C(C)C)C(C)C)C(C)C)[C@@H](C)O | PC-3 prostate cancer | phage binding |  | baseline: targeting over control phage | selectivity ratio | 0.8 ± 0.26 |
| N[C@H](C(=O)N1CCCC1)C1CCN(c2nccc3c(-c4ncc(Cl)cc4Cl)cccc23)CC1 | human neutrophils | protein citrullination, inhibitor, flow cytometry, measured: citrullinated histone H3 | 1 µM, added: ionomycin |  | inhibition | 61.3% and 57.4% and 45.3% and 51.5% |
| CC(=O)NCSC[C@H](NC(=O)[C@@H]1CCCN1C(=O)[C@H](C)NC(=O)[C@@H](NC(=O)CNC(=O)[C@@H](NC(=O)[C@H](Cc1c[nH]c2ccccc12)NC(=O)[C@H](C)NC(=O)CNC(=O)[C@H](CO)NC(=O)[C@H](C)NC(=O)[C@@H]1CCCN1C(=O)[C@H](Cc1c[nH]c2ccccc12)NC(=O)[C@H](C)NC(=O)[C@H](C)NC(=O)[C@@H](N)Cc1ccc(O)cc1)[C@@H](C)O)[C@@H](C)O)C(=O)N[C@@H](CO)C(=O)N[C@@H](C)C(=O)NCC(=O)N[C@H](C(=O)NCCOCCOCCOCCOCCOCCOCCOCCOCCOCCOCCOCCOCCC(=O)N[C@@H](CS)C(N)=O)[C@@H](C)O | PC-9 | phage binding |  | baseline: targeting over control phage | selectivity ratio | 5.8 ± 2.2 |
| CC1CCC2C(C)C(OC(=O)CCC(=O)N3CCC(Nc4ccc(S(=O)(=O)NC(=O)c5ccc(N6CCN(CC7=C(c8ccc(Cl)cc8)CC(C)(C)CC7)CC6)cc5Oc5cnc6[nH]ccc6c5)cc4[N+](=O)[O-])CC3)OC3OC4(C)CCC1C32OO4 (stereo not shown) | THP-1 | annexin V/PI flow cytometry, measured: annexin V+/PI- | 0.2 µM, 24 h |  | early apoptotic cells | 13.4% |
| CC[C@H](C)[C@H](NC(=O)[C@H](C)NC(=O)CNC(=O)[C@H](Cc1ccccc1)NC(=O)[C@H](CC(N)=O)NC(=O)[C@H](CC(N)=O)NC(=O)[C@H](CO[C@@H]1O[C@H](CO)[C@@H](O)[C@H](O)[C@H]1NC(C)=O)NC(=O)[C@H](CO)NC(=O)[C@H](Cc1c[nH]cn1)NC(=O)[C@@H](NC(=O)[C@H](CC(C)C)NC(=O)[C@H](Cc1ccccc1)NC(=O)[C@H](CC(N)=O)NC(=O)[C@H](C)NC(=O)[C@@H](N)CC(C)C)C(C)C)C(=O)N[C@@H](CC(C)C)C(N)=O | INS-1 | MTT | 2 equivalents to hIAPP, 24 h, added: hIAPP 1 µM |  | viability | 68.6% |
| O=C(C[Se]C(=O)c1ccco1)Nc1cccc(C(F)(F)F)c1 | NCI60 melanoma subpanel | cytotoxicity, inhibitor | five-dose |  | CC50 | 32.5 µM |
| CC(C)[C@H](NC(=O)[C@H](CCCNC(=N)N)NC(=O)[C@@H]1CCCN1C(=O)[C@@H](NC(=O)[C@H](C)NC(=O)[C@H](Cc1ccc(O)cc1)NC(=O)[C@H](CCC(N)=O)NC(=O)[C@H](CCCCN)NC(=O)[C@H](CCCNC(=N)N)NC(=O)[C@@H]1CCCN1C(=O)[C@H](CCC(=O)O)NC(=O)[C@@H](NC(=O)[C@H](C)N)[C@@H](C)O)[C@@H](C)O)C(=O)N[C@@H](Cc1ccccc1)C(=O)N[C@@H](Cc1c[nH]c2ccccc12)C(=O)N[C@H](C(=O)N[C@@H](CC(=O)O)C(=O)N[C@@H](C)C(=O)N1CCC[C@H]1C(=O)NCC(=O)NCCOCCOCCOCCOCCOCCOCCOCCOCCOCCOCCOCCOCCC(=O)N[C@@H](CS)C(N)=O)[C@@H](C)O | Calu-3 | phage binding |  | baseline: targeting over control phage | selectivity ratio | 0.73 ± 0.11 |
| O=C(C[Se]C(=O)c1cccs1)Nc1cccc(C(F)(F)F)c1 | NCI60 melanoma subpanel | cell growth | 10 µM, 48 h, one-dose |  | mean growth percent | -84% |
| CC(C)C12OC1C1OC13C1(C)CCC4=C(COC4=O)C1CC1OC13C2OC(=O)CCC(=O)OC1OC(CO)C(O)C(O)C1O (stereo not shown) | SK-BR-3 | cell growth or viability, XTT | 47 h |  | IC50 | 1.3 µM |
| Cc1cc(Oc2nc(N3CC[C@@H](c4ccncc4)C3)ncc2F)[nH]n1 | bladder cancer cell lines | cell proliferation | average over lines |  | IC50 | 58.9 µM |
| O=C(C[Se]C(=O)c1ccccc1)Nc1cccc(C(F)(F)F)c1 | NCI60 melanoma subpanel | cytotoxicity, inhibitor | five-dose |  | CC50 | 22.9 µM |
| NC(=S)N/N=C/c1ccc(OCc2ccccc2)cc1 | IMR-32 | measured: GPX3 | 500 µg/mL, 24 h | higher = more activity | glutathione peroxidase activity (OD450) | 0.181 a.u. |
| O=C(O)c1ccc(-c2nc(-c3ccccc3Cl)c3sccn23)cc1 | K562 | erythroid differentiation, flow cytometry | 0.1 mM, 48 h |  | CD235a-positive cells | 61.8% and 70.5% and 66.4% |
| CCC1=NC2CC3(C(=O)N(OC)c4ccccc43)C3OCC2C1C3O (stereo not shown) | HT-22 | CCK-8 | up to 100 µM, 24 h |  | viability | no effect |
| CC(C)CC(O)(CC(C)C)c1cn(C(=O)N2CCCC2)nn1 | mouse T-cells | SILAC proteomics, measured: FDX1 | 1 nM, 6 h, unit not given | baseline: DMSO | protein level | 1.01 |
| CC(C)(C)C(=O)OCOP(=O)(OCOC(=O)C(C)(C)C)C1CCCN(O)C1=O (stereo not shown) | CAKI-1 |  |  |  | log TGI | > -4 log M |

For quick reference, copied from above:
| SMILES | cell line | test | setting | scale | quantity | value |
| --- | --- | --- | --- | --- | --- | --- |
| NC(=S)N/N=C/c1ccc(OCc2ccccc2)cc1 | IMR-32 | measured: GPX3 | 500 µg/mL, 24 h | higher = more activity | glutathione peroxidase activity (OD450) | 0.181 a.u. |
| O=C(O)c1ccc(-c2nc(-c3ccccc3Cl)c3sccn23)cc1 | K562 | erythroid differentiation, flow cytometry | 0.1 mM, 48 h |  | CD235a-positive cells | 61.8% and 70.5% and 66.4% |
| CCC1=NC2CC3(C(=O)N(OC)c4ccccc43)C3OCC2C1C3O (stereo not shown) | HT-22 | CCK-8 | up to 100 µM, 24 h |  | viability | no effect |
